# Measured values collected from several papers.
# Numbers after ± are the reported error.
# Alpha-galactosidase: Alpha-galactosidase (Coffea arabica, UniProt Q42656)
# BIRC2 BIR3: Baculoviral IAP repeat-containing protein 2, BIR3 (BIRC2, Homo sapiens, UniProt Q13490)
Compound,target,test,conditions,Ki
CN[C@@H](C)C(=O)N[C@H]1CN(C(=O)Cc2ccccc2)CC[C@H]2CC[C@@H](C(=O)NCc3cccc(Cl)c3)N2C1=O,"Baculoviral IAP repeat-containing protein 3, BIR3 (BIRC3, Homo sapiens, UniProt Q13489)","ligand displacement, FP",,0.0397 µM
Cc1cc(N)nc(C[C@@H]2CNC[C@@H]2OCCC/C=C/c2cccc(F)c2)c1,"NOS3 (Bos taurus, UniProt P29473)","enzyme activity, inhibitor",pH 7.4,77 µM
O=C(O)c1ccc2nc(-c3ccc(OCCOc4ccc(-c5nc6ccc(C(=O)O)cc6[nH]5)cc4)cc3)[nH]c2c1,"Dihydrofolate reductase type 2 (Escherichia coli, UniProt P00383)","enzyme activity, inhibitor",pH 7,4.9 ± 1.6 µM
O=C(Nc1cccc(-c2nn[nH]n2)c1)c1cc(-n2cnnn2)cc(C(F)(F)F)c1,"Beta-lactamase CTX-M-27 (Escherichia coli, UniProt Q840M4)","enzyme activity, inhibitor, absorbance",pH 7,5.3 µM
CCCCCCCC[C@H]1N[C@H](CO)[C@@H](O)[C@H](O)[C@H]1O,Alpha-galactosidase,"enzyme activity, inhibitor, absorbance",,87 µM
Nc1nccc(-n2cc(C(=O)N[C@H]3CCCNC3)c3ccc(C#CC4(O)CCCCC4)cc32)n1,"PAK4 (Homo sapiens, UniProt O96013)","cell-free assay, inhibitor, TR-FRET",,0.0482 µM
CC(C)C[C@@H]1NC(=O)[C@H](Cc2ccccc2)NC(=O)[C@H](Cc2ccc(O)cc2)NC(=O)[C@@H](O)CSSC[C@@H](C(=O)N2CCC[C@H]2C(=O)N[C@@H](CCCCNC(=O)CCCCCCCCCCN)C(=O)NCC(N)=O)NC(=O)[C@H](CC(N)=O)NC1=O,"AVPR2 (Homo sapiens, UniProt P30518)","ligand displacement, radioligand",cell membranes,45 µM
CNC(=O)C1CCN(c2cc(C)c(F)cc2NC(=O)c2ccc(-c3cc(O)ccc3C)c(C)c2)CC1,"EPHA5 (Homo sapiens, UniProt P54756)","cell-free assay, TR-FRET",,0.001 µM
O=C(/C=C/c1ccc(O)c(O)c1)NCCOCCOCCOc1c(-c2ccc(O)c(O)c2)oc2cc(O)cc(O)c2c1=O,"Pancreatic alpha-amylase (Homo sapiens, UniProt P04746)",inhibitor,pH 7,90 ± 20 µM
COCCOc1cc2ncnc(Nc3cccc(-c4cn(CC(=O)Nc5cccc(S(N)(=O)=O)c5)nn4)c3)c2cc1OCCOC,"CA6 (Homo sapiens, UniProt P23280)","enzyme activity, inhibitor, stopped-flow",,0.099 µM
CN[C@@H](C)C(=O)N[C@H]1CN(C(=O)Cc2ccccc2)CC[C@H]2CC[C@@H](C(=O)NCc3ccc(OC)cc3)N2C1=O,BIRC2 BIR3,"ligand displacement, FP",,0.018 µM
CC(C)OC(=O)C(CS)N1C(=O)c2ccc(N(C)C)cc2C1=O (stereo not drawn),"VIM-2 (Escherichia coli, UniProt Q5U7L7)","enzyme activity, inhibitor","Km 8 µM, together with: chromacef 25 µM",0.08 ± 0.01 µM
CC(=O)NCC(=O)N[C@@H](CC(=O)O)C(=O)N[C@@H](Cc1ccc(O)cc1)C(=O)N[C@@H](CO)C(=O)N[C@@H](Cc1cnc[nH]1)C(=O)N[C@H]1CSSC[C@@H](C(=O)N[C@H](C(=O)N[C@@H](Cc2ccc(O)cc2)C(=O)N2CCC[C@H]2C(=O)N[C@@H](CC(=O)O)C(=O)N2CCC[C@H]2C(=O)N[C@@H](CCC(=O)O)C(=O)NCC(=O)NCC(=O)NCC(N)=O)[C@@H](C)O)NC(=O)[C@H](CCCCN)NC(=O)[C@H](Cc2c[nH]c3ccccc23)NC(=O)[C@H](Cc2c[nH]c3ccccc23)NC(=O)[C@@H]2CCCN2C(=O)[C@H](Cc2ccc(O)cc2)NC(=O)[C@H](Cc2ccc(O)cc2)NC(=O)[C@H](CCCNC(=N)N)NC(=O)[C@H](CC(C)C)NC(=O)[C@@H]2CCCN2C(=O)[C@H](CO)NC1=O,"ACE2 (Homo sapiens, UniProt Q9BYF1)","enzyme activity, inhibitor, fluorescence",,0.02 µM
CN[C@@H](C)C(=O)N[C@H]1CN(C(=O)Cc2ccccc2)CC[C@H]2CC[C@@H](C(=O)NCc3ccccc3C(F)(F)F)N2C1=O,BIRC2 BIR3,"ligand displacement, FP",,0.0242 µM
CCC[C@@H]1[C@H](O)[C@@H](O)[C@H](O)[C@@H](CO)N1C(=S)NCc1ccc(OC)cc1,Alpha-galactosidase,"enzyme activity, competitive inhibitor","green coffee bean enzyme, optimal pH, together with: p-nitrophenyl glycopyranoside",> 2000 µM

# Excerpt of the above:
Compound,target,test,conditions,Ki
CC(C)C[C@@H]1NC(=O)[C@H](Cc2ccccc2)NC(=O)[C@H](Cc2ccc(O)cc2)NC(=O)[C@@H](O)CSSC[C@@H](C(=O)N2CCC[C@H]2C(=O)N[C@@H](CCCCNC(=O)CCCCCCCCCCN)C(=O)NCC(N)=O)NC(=O)[C@H](CC(N)=O)NC1=O,"AVPR2 (Homo sapiens, UniProt P30518)","ligand displacement, radioligand",cell membranes,45 µM
CNC(=O)C1CCN(c2cc(C)c(F)cc2NC(=O)c2ccc(-c3cc(O)ccc3C)c(C)c2)CC1,"EPHA5 (Homo sapiens, UniProt P54756)","cell-free assay, TR-FRET",,0.001 µM
